Assay results pooled from the literature.
Each numbered part is a random draw from the data of one study; scales do not carry over between parts.

Series 1
Target: RNA binding protein fox-1 homolog 2, RRM domain, GST-SBP tag (RBFOX2, Homo sapiens, UniProt O43251-10, residues 100-194)
Technique: RNA Bind-n-Seq
Form: RNA
Matrix: in vitro
Concentration: 365 nM
Notes: natural RNA segment, single round, ends assumed
Baseline: no-protein control
Direction: higher = stronger binding
All sequences stand within: GGGAGUUCUACAGUCCGACGAUC … UGGAAUUCUCGGGUGCCAA
Target sequence (chain): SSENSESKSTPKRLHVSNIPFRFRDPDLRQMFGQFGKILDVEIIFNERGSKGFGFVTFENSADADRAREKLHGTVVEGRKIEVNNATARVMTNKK
Strand	RBNS enrichment (R)
CAAGGGUAUCAGCUUUUCCUUAGAUUUGUUCCUUGCUUUAUUUUUUAAUCACUAGCCAAAUUAAAUAAAAGCAUUUAUGAGAACUCUAAACCUUUCUGUAUUUGAGAGAG	0.908
GGCUGUACCCUGCAAUGCCAUAGGGGUGGAGCUGCCCAAGACCAUGGGAACCCACCUCCUGCAUCAGUGUGACCUGGAUGUGAGACAUGGAGUCAAAGGAGACCAUUUUG	0.439
CCAGCUCCCUGCUCACUCUUCUCUCAGCCAAAGCCUCCAAAGGGACUAGAGAGAAGCCUCCUGCUCCCCUCGCCUGCACACCCCCUUUCAGAGGGCCACUGGGUUAGGAC	0.579
AAGUGAUGCCCUUCUGGAGACUGAGGGUGUGGCCUUCCUCCCAUGCUCUCUCUGGGUGAGUGUGGGGUCUGGGUGUCCUUUGCAUUCCCCUCCUCACCCCAGGUGCCUUA	0.687
AGACACUUCCUGAGAGUCUCACCUUCAAAAUGACACCGCUGCCCAUCCAUUGCUCAAUGGUACAGAGUGUGGGGUCAGUCCACCACCCUUGACCUCCCGGCAGGGCAAGG	0.283
GAUGCUAUUGAAACAUACAAAGGUAGACCUUUUGACUUUAAACAGUUAAUAACGAAUGCUGUUUCAAACAUAACCAAUCUGAUCAUUUUUGGAGAACGAUUCACUUAUGA	0.347
CUGUUGGCACCAAAAAGCUAGGUUUUGUCUACCUCAGUUCUUGUCAUACCAAUCUCUACGGGAAAGAGAGGUAGGAGAGGCUGCGAGGAAGCUUGGGUUCAAGCGUCACU	0.548
ACCUUGUAAUGUAACUGCUCUUGGGCAAUAUUCUCUGUACAUAUUAGCGACAACAGAUUGGAUUUUAUGUUGACAUUUGUUUGGUUAUAGUGCAAUAUAUUUUGUAUGCA	4.8
ACUUGUUACAGUGUCCUUUUUUUCUCAGCUUCAGGAUUAUGGACAUAGAUCUCCACACCUGGCUUGUAACUAUUUUGAGGCUGAAAGAGCUAAUGAAGGGCCCUGCCUAG	0.62
UAGAAUGUGGUAAUGGACAUAUUACUGAGCCUCUCCAUUUGGAACCCAGUGGAGUUGGGAUUUCUAGACCCUCUUUCUGUUUGGAUGGUGUAUGUGUAUAUGCAUGGGGA	8.46
AAGGGGCCAGAGGCUCGUUGACUGGCUGUGUGUUGGGAUUGAGUCUGUGCCACGUGUUUGUGCUGUGGUGUGUCCCCCUCUGUCCAGGCACUGAGAUACCAGCGAGGAGG	1.7
UGUGGAGGAGUGGUCCCAGUGACAUCCAGGCACCAUUCAGCACAACACUGGGAAGUGAUUCUUCCCUCAGGCCCCUCUGCCUACCAACACCUGGGCUCCUCACUGGGGGA	0.552

Series 2
Target: Histone acetyltransferase KAT6A, winged helix 1, GST fusion (KAT6A, Homo sapiens, UniProt Q92794, residues 1-85)
Technique: protein binding microarray
Form: double-stranded DNA, one strand shown
Matrix: in vitro
Concentration: not given
Notes: 8-mer, flanks averaged, mean of 2 arrays, mostly near background
Baseline: not given
Direction: higher = stronger binding
Construct (chain): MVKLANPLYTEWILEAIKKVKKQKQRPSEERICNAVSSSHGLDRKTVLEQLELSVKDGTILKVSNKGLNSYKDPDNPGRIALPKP
Strand	E-score
GAACAGGC	0.0101
CAAGTGGG	-0.237
AACCGTGG	-0.00189
AAATGTAT	-0.133
AACTCAGT	-0.219
ACGAGGAT	-0.186
GAAACATC	-0.0162
CAGTGCGG	0.357
ATCGAAAG	0.0202
CACTAGAC	0.0213
ACGTCCAA	-0.0437
CCGTCATA	0.223
GTGACACA	0.0195
CGGTCCGA	0.286
ATGGTCGG	0.11
CACAGTGG	-0.119
ACCGTAGT	0.158

Series 3
Target: Fragile X messenger ribonucleoprotein 1, C-terminal low-complexity region (Fmr1, Mus musculus, UniProt P35922)
Technique: RNA Bind-n-Seq
Form: RNA
Matrix: in vitro
Concentration: 200 nM
Notes: whole 134-nt RNA, ends assumed
Added: 150 mM LiCl
Baseline: input library
Direction: higher = stronger binding
Each molecule: 7-deaza-guanosine replaces G
All sequences stand within: GGGAGUUCUACAGUCCGACGAUC … UGGAAUUCUCGGGUGUCAAGG
Strand	log2 enrichment
GCAGGAAGUAAAAACAAAUGGAAAUGCUGCGGAUAGUGGCAGGGGUGGGGGUUGCUAAGGAAAGGGUGGGAUGGGAGUGGGUAAAGAGUU	1.9
AGUCCUGUGCUACACAUCGUAUGUACCGAAUCGGGUUUUUUUGGGUUUGGGUUUGGGAAAGUAUUAUGUUACGCCGUUCGGAUCUGCACU	-1.69
UCAAGUCCUGUGCUACACAUCGUAUGUACCGAAUCGGAAAAAGGUGGAAAAAGGAAAGUAUUAUGUUACGCCGUUCGGAUCUGCACUUCC	-0.601
UCCUGUGCUACACAUCGUAUGUACCGAAUCGGGGUUUUUGGGGUUUUUGGGUUUUUGGGAAAGUAUUAUGUUACGCCGUUCGGAUCUGCA	0.301
CAAGUCCUGUGCUACACAUCGUAUGUACCGAAUCGGGGUUGGGGUUGGGGUUGGGAAAGUAUUAUGUUACGCCGUUCGGAUCUGCACUUC	-0.697
CUGUGCUACACAUCGUAUGUACCGAAUCGGGGUUUUUGGGGAAAAAGGGGAAAAAAAGGGGAAAGUAUUAUGUUACGCCGUUCGGAUCUG	-0.324
ACCAGGCAGGUGGGCAUCUUUGGGAAGUGGGGCAAGGGGGGGAUAGGGAGGGGGGUAACACUUUGGGAACAGGUGGUCCCAGGUCGUUUC	1.54
GUCCUGUGCUACACAUCGUAUGUACCGAAUCAAAUUUUUAAAUUUAAAUUUUUUUAAAAAAGUAUUAUGUUACGCCGUUCGGAUCUGCAC	-2.88
ACCAUGCAGGUGUGCAUCUUUGGGAAGUGGGGCAAGGGGGGGAUAGGGAGGGGGGUAACACUUUGGGAACAGGUGGUCCCAGGUCGUUUC	1.27
AAGUCCUGUGCUACACAUCGUAUGUACCGAAUCGGGGCCCGGGGCCCGGGCCCGGGAAAGUAUUAUGUUACGCCGUUCGGAUCUGCACUU	-2.57
AGUCCUGUGCUACACAUCGUAUGUACCGAAUCGGGGUUUUUGGUUUUUGGUUUUUGGAAAGUAUUAUGUUACGCCGUUCGGAUCUGCACU	-2.15

Series 4
Target: Centromere-binding protein 1, full length, His-tagged (CBF1, Saccharomyces cerevisiae, UniProt P17106, residues 1-351)
Sequence of UniProt P17106 (whole entry, looked up): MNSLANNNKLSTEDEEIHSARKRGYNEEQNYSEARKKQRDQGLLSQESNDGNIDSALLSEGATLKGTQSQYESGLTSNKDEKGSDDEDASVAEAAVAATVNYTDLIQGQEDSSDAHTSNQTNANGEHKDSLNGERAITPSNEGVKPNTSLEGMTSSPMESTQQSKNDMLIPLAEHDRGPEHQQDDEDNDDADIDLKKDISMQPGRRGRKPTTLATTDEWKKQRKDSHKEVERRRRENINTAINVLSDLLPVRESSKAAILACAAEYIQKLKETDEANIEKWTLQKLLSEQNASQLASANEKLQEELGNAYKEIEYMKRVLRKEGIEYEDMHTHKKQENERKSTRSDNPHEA
Technique: competition protein-binding microarray
Form: double-stranded DNA, one strand shown
Matrix: in vitro
Concentration: 2 µM
Notes: whole 60-bp probe, lowest competitor level
Added: Pho4 competitor, 0.05 µM
Direction: higher = stronger binding
All sequences stand within: … GTCTTGATTCGCTTGACGCTGCTG
Strand	fluorescence intensity
GTCTTGTCTCATTGAGCAGTGGGTGTCCCCACTTCA	77.3 a.u.
CGTCCTAGTGATTGCCTAGTGGGTGCCATGAGGAAG	86.9 a.u.
AAATTACTAAGTTGTCACCGAACTTACCCCGTATGA	80.9 a.u.
CTTCTGTAAATTTGGACAGTGGGTGGACGCGCCCCG	71.4 a.u.
TGCGCAACAACTTGTCACGCCACTTTATGTCTAGAA	320 a.u.
CGGCCCAGATTTTTTCACCTGACTCCGGTCCTGACG	134 a.u.
CGCAGTCGCAACCAACATGTGACGGATGCGAGCGAA	460 a.u.
AAATATCTAAGCCATCACATGACAGCAAGACCCTTT	900 a.u.
AAGACTGTACATTCACACGGGAAACGAGAGAAAGAA	68.3 a.u.
AGCGCCCATAAAAAGCACGATATTCTTGTACACTAG	75.5 a.u.
CGGGGTTAAGTTTTTCACGTGCTCTGCTTGCAGCAG	1130 a.u.
GACATCAAATGCAAGCACATGAAGCTGGAACTTCGC	93.3 a.u.
GTCTTGTCTCATTGCCCCGTGGGTGTCCCCACTTCA	92.7 a.u.
CGGGGTTAAGTTTGTCACACTACTTGCTTGCAGCAG	78.8 a.u.
AACCTCTCAACAAAGCACGCTATGTACACACATCTA	75.1 a.u.
CTAACGAAGGTTTGAGTAGTGGGTGACAAGCCAAGT	62.6 a.u.
CAGAAGGAGAGACTGAACGTGTACTTCAACGAGGCA	63.6 a.u.
CAATTTGTGGTCTTCGTCGTGCTTTGTGGGTTTAGC	75 a.u.
AAAAGAGAAGATACCCACGTGCCGAAAAAATAAAGT	1960 a.u.
GTTACTGGTGGTTGTCATGTTTCCCAAGTTTACGCC	67.5 a.u.
TAGCCCCAAAATCCACACGTGACGGAAATGATTTAG	4170 a.u.

Series 5
Target: POU, POU domain (Salpingoeca helianthica)
Technique: Spec-seq
Form: double-stranded DNA, one strand shown
Matrix: in vitro
Concentration: not given
Notes: whole probe, mean of replicates
Baseline: not given
Direction: lower = stronger binding
All sequences stand within: GAGTCGTCTCGTCAGCAC … CCGTAGAGCACTCAGGTC
Target sequence (chain): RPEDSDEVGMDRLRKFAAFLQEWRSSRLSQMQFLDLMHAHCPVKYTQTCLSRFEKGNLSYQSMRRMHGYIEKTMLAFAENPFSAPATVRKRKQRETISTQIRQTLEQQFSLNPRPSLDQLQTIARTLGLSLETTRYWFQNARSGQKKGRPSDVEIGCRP
Strand	relative binding energy [ln ratio]
ATACAGAT	1.29
ATTTTCAT	0.784
GTAGTAAT	0.456
ATGCTTGT	1.23
ATGCTCCC	1.62
ATGCACAT	1.34
ATCAAGAT	0.992
ATGCAGAC	1.49
ATGCGTGC	1.3
ATGCGCGA	1.5
ACATTAAT	-0.02
ATGCTCGG	1.34
ATGCTAAT	0.674
ATGCGACT	1.05
ATGTAGAT	1.15
ACAGTAAT	0.592
ATGCAATA	1.36
ATGCAGCG	1.41
ATGCAAAG	1.5
ATGCCCTG	1.53
ATGGATAT	1.04

Some of these lines once more (series 2):
Strand	E-score
CGGTCCGA	0.286
ATGGTCGG	0.11
CACTAGAC	0.0213
ACGTCCAA	-0.0437
CCGTCATA	0.223
CAAGTGGG	-0.237
GTGACACA	0.0195
CAGTGCGG	0.357
